Results pooled from the literature.
“And” joins repeats or separate records; there may be more than shown. ± gives the spread as reported.
Cell line: MDA-MB-231

Compound	effect on	technique	tested at	time	notes	quantity	value
CCCNC(=O)[C@H]1O[C@@H]1C(=O)N[C@H](C(=O)N1CCC[C@H]1C(=O)OCC1=C2C(C)=CC(C)=[N+]2[B-](C)(C)n2c(C)cc(C)c21)[C@@H](C)CC	cell viability	MTT	–	72 h	dark	EC50	24 ± 3.3 µM
COc1ccc(CNC[C@](O)(COCc2ccccc2)[C@@H]2CC[C@@H](C)C[C@H]2OCc2ccccc2)cc1	cell growth or viability	MTT	30 µM	72 h	–	inhibition	100%
Oc1ccnc(-c2cc(O)ccn2)c1.[Cl-].[Cl-].[Ru+2].c1ccc(-c2ccnc3c2ccc2c(-c4ccccc4)ccnc23)cc1.c1ccc(-c2ccnc3c2ccc2c(-c4ccccc4)ccnc23)cc1	cell growth or viability	–	–	–	dark	EC50	30 µM
C[C@@H]1CC[C@@H]([C@@](O)(CNCc2ccc(F)cc2)COCc2ccccc2)[C@H](OCc2ccccc2)C1	cell growth or viability	MTT	30 µM	72 h	–	inhibition	98.4%
CC(=O)OC[C@H]1O[C@@H](n2cc(CSc3nc4ccccc4n3Cc3cn([C@@H]4O[C@H](COC(C)=O)[C@@H](OC(C)=O)C(OC(C)=O)[C@H]4OC(C)=O)nn3)nn2)[C@H](OC(C)=O)C(OC(C)=O)[C@@H]1OC(C)=O (stereo in doubt)	–	MTT	250 ppm	–	–	cytotoxicity	93%
C[C@@H]1CC[C@@H]([C@](O)(CNCc2cccc(F)c2)COCc2ccccc2)[C@H](OCc2ccccc2)C1	cell growth or viability	MTT	10 µM	72 h	–	inhibition	95.4%
CC(=O)[O][Pd][c]1ccccc1-n1nc(C)cc1C.CC(=O)[O][Pd][c]1ccccc1-n1nc(C)cc1C	–	FLICA flow cytometry	25 µM	24 h	–	caspase-3/7 active cells	34.1 ± 2.26%
CCCNC(=O)[C@H]1O[C@@H]1C(=O)N[C@H](C(=O)N1CCC[C@H]1C(=O)OCC1=C2C(C)=CC(C)=[N+]2[B-](F)(F)n2c(C)cc(C)c21)[C@@H](C)CC	cell growth or viability	MTT	–	–	dark	EC50	> 50 µM
COc1ccccc1-c1ccncc1C(=O)Nc1nnc(OCc2ccc(Cl)cc2)s1	–	–	3 µM	–	–	colony count	22 and 33.5
CCCNC(=O)[C@H]1O[C@@H]1C(=O)N[C@H](C(=O)N1CCC[C@H]1C(=O)OCC1=C2C(C)=CC(C)=[N+]2[B-](CC)(CC)n2c(C)cc(C)c21)[C@@H](C)CC	cell viability	MTT	concentration not given	72 h	irradiated 15 min up to 470 nm	EC50	> 50 µM
COc1ccccc1CNC[C@@](O)(COCc1ccccc1)[C@@H]1CC[C@@H](C)C[C@H]1OCc1ccccc1	cell growth or viability	MTT	30 µM	72 h	–	inhibition	98.4%
CC(=O)OCC1=C2C(C)=CC(C)=[N+]2[B-](C)(C)n2c(C)cc(C)c21	cell viability	MTT	concentration not given	4 h	irradiated 15 min up to 470 nm	EC50	> 50 µM
CCc1c(C)c2ccc(OC(C)C)c(C)c2oc1=O	cell growth or viability	MTT	62.5 µg/mL	–	–	viability	24.5%

Repeated from above:
Compound	effect on	technique	tested at	time	notes	quantity	value
CC(=O)OC[C@H]1O[C@@H](n2cc(CSc3nc4ccccc4n3Cc3cn([C@@H]4O[C@H](COC(C)=O)[C@@H](OC(C)=O)C(OC(C)=O)[C@H]4OC(C)=O)nn3)nn2)[C@H](OC(C)=O)C(OC(C)=O)[C@@H]1OC(C)=O (stereo in doubt)	–	MTT	250 ppm	–	–	cytotoxicity	93%
